Assay results collected from several papers.
Compare with care: the assays were run in different laboratories.
Genome polyprotein NS2B-NS3 protease: Genome polyprotein, NS2B-NS3 protease (dengue virus type 2, UniProt P29990)
KMT5C: Histone-lysine N-methyltransferase KMT5C (KMT5C, Homo sapiens, UniProt Q86Y97)
Chain of UniProt Q86Y97 (whole entry, looked up): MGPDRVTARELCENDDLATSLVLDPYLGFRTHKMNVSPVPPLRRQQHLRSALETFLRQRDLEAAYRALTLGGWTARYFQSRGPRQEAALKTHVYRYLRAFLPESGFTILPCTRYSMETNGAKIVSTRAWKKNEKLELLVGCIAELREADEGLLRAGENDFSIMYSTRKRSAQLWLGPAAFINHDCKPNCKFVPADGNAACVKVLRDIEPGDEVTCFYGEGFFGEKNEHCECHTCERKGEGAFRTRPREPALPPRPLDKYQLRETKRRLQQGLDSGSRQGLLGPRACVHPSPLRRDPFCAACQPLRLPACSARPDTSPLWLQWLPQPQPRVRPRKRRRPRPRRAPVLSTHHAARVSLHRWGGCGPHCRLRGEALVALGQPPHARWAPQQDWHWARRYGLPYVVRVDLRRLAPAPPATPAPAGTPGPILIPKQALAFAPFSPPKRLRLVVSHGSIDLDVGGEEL
ADRA1D: Alpha-1D adrenergic receptor (ADRA1D, Homo sapiens, UniProt P25100)
Chain of UniProt P25100 (whole entry, looked up): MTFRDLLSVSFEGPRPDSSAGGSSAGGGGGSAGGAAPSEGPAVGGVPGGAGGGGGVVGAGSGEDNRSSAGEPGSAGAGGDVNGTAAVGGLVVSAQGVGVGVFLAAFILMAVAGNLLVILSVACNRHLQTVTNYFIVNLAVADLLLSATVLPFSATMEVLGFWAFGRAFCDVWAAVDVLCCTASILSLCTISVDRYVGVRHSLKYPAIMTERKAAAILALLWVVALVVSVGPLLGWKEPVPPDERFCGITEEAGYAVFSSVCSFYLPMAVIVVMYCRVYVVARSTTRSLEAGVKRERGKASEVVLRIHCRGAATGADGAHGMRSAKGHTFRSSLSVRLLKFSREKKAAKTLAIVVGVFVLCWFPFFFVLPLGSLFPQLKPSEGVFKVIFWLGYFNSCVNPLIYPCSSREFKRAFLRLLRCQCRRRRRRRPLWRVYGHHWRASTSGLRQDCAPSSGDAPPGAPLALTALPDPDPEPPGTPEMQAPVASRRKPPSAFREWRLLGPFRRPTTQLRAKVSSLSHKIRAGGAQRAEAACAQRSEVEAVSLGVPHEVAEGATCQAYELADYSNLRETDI
ATR: Serine/threonine-protein kinase ATR (ATR, Homo sapiens, UniProt Q13535)
Chain of UniProt Q13535 (whole entry, looked up): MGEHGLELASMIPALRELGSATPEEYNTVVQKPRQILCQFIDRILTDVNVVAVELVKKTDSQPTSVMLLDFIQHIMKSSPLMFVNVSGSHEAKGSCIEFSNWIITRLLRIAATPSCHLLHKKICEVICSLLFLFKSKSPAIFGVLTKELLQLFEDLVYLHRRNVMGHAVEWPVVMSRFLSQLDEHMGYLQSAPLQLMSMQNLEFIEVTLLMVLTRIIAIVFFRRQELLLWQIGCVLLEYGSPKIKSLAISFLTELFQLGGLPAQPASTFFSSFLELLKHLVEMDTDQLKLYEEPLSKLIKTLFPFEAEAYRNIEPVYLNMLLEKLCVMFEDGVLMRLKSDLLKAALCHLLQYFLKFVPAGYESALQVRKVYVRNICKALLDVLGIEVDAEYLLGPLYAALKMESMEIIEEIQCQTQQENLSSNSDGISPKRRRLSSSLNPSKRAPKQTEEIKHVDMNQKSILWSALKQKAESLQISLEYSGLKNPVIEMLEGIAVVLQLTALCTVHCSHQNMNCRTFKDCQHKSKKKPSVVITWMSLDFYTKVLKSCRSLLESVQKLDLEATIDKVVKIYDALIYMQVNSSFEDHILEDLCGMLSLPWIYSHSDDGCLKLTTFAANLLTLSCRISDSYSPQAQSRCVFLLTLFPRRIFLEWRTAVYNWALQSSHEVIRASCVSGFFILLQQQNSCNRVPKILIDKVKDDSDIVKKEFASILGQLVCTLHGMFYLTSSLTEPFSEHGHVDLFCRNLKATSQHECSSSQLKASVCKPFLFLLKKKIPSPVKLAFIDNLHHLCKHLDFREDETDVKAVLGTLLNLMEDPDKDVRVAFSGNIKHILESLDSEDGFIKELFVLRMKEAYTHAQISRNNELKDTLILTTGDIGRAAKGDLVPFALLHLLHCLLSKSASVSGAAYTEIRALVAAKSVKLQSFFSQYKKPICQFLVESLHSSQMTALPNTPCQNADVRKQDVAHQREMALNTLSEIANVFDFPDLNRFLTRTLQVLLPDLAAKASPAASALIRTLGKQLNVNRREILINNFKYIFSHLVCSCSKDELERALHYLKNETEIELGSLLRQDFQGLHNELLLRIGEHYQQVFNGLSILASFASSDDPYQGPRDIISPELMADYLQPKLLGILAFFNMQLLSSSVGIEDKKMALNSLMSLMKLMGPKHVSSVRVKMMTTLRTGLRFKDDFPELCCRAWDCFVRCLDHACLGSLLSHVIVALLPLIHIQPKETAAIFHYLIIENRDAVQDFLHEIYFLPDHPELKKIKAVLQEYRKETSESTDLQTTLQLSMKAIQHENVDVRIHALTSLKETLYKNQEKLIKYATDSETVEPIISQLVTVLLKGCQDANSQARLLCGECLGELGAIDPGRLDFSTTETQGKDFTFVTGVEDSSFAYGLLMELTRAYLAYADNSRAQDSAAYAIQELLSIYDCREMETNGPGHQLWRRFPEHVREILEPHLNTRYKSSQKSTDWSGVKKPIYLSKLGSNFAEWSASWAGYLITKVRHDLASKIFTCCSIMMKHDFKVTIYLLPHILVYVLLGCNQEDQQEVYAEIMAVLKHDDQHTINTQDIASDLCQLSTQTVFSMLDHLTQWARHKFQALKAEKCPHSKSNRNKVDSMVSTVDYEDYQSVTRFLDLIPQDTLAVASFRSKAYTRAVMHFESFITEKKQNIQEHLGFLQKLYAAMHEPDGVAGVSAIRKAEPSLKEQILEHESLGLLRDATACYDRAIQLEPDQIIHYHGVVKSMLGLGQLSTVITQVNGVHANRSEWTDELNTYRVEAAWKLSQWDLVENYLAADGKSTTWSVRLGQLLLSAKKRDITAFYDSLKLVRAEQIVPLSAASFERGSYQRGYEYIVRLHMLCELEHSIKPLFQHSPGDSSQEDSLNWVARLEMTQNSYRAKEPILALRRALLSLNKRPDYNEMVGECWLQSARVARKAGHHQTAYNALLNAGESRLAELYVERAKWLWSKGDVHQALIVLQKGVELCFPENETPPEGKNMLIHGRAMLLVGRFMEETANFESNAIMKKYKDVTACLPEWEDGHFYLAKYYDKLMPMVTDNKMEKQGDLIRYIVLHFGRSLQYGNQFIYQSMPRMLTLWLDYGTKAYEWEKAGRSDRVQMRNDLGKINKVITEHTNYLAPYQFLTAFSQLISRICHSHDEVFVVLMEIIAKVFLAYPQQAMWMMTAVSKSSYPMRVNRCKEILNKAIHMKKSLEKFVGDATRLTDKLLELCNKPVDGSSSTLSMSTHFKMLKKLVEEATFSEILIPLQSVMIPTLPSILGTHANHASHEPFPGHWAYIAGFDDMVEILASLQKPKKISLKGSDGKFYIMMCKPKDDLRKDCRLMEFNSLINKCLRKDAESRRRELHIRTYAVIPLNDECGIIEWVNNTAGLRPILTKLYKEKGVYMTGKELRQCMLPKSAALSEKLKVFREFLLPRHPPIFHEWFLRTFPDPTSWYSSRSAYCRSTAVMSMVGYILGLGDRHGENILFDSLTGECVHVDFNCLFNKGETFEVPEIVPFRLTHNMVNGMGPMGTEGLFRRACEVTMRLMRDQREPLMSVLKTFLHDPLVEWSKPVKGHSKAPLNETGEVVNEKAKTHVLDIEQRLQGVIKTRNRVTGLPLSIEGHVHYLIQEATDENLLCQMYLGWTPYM
TNKS: Poly [ADP-ribose] polymerase tankyrase-1 (TNKS, Homo sapiens, UniProt O95271)
Chain of UniProt O95271 (whole entry, looked up): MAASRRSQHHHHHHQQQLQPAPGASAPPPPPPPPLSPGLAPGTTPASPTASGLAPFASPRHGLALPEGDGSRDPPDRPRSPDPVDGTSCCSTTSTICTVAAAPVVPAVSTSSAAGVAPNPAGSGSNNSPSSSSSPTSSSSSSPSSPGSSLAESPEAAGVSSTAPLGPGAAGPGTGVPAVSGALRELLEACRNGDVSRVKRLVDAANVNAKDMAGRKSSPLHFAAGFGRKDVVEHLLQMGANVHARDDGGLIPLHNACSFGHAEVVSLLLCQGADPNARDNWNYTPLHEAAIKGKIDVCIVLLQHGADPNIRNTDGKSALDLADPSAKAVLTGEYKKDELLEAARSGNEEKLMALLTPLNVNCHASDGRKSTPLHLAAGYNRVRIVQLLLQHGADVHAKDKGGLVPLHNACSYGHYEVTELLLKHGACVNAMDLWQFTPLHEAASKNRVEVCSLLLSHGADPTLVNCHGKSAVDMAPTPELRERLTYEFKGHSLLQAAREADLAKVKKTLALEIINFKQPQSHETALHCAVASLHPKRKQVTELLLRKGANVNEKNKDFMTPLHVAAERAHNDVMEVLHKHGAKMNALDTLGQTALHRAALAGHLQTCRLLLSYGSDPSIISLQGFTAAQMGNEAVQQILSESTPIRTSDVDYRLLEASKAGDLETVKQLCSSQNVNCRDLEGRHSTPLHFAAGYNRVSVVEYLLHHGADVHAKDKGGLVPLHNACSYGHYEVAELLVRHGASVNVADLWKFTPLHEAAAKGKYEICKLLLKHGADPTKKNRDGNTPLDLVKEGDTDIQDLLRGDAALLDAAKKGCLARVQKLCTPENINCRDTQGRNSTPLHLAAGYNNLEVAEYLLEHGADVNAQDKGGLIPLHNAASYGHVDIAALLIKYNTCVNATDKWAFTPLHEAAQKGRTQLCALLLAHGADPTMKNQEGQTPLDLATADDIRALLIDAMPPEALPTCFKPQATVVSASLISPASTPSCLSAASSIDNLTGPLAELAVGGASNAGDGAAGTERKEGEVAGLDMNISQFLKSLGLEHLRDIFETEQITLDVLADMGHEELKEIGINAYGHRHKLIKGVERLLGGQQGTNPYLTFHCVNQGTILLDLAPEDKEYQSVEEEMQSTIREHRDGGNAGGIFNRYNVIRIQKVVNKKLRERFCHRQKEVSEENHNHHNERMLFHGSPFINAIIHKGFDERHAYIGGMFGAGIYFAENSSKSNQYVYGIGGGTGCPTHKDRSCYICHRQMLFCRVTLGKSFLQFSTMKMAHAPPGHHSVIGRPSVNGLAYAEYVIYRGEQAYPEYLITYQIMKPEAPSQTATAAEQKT

Substance | target | test | test system | conditions | how to read | inhibition [%]
COc1ccc2nc(C)ccc2c1Nc1sn(C)c(=O)c1C#N | SARM1 (Homo sapiens, UniProt Q6SZW1) | enzyme activity, inhibitor |  | 10 µM |  | 100
Cc1c(C(=O)N[C@H](C(=O)Nc2cccc(C(N)=O)c2)c2ccc(OCc3ccccc3)cc2)cnn1-c1ccccc1 | Genome polyprotein NS2B-NS3 protease | reporter gene | HeLa | 12.5 µM |  | 68
Cc1cccc(O[C@H]2CCC[C@@H](C(C)CNCc3ccncc3)C2)c1 (relative stereo) | DYRK3 (Homo sapiens, UniProt O43781) | enzyme activity, inhibitor |  | 10 µM |  | -4
N=C(N)NCCCC(NC(=O)C(CC(=O)NO)Cc1ccc2ccccc2c1)C(=O)NC(Cc1c[nH]c2ccccc12)C(=O)NC(CCC(=O)O)C(N)=O (centres unmarked) | Matrix metalloproteinase-24 (Homo sapiens, UniProt Q9Y5R2) |  |  | 1 µM |  | 46
C/C=C/C(=O)Nc1ccc2nc(NCCCCCN(C)C)nc(NCCCCCCN(C)C)c2c1 | KMT5C | enzyme activity, inhibitor, radiometric |  | 50 µM |  | 57
Brc1ccccc1-c1nnc(CSc2nnnn2-c2ccccc2)o1 | ADRA1D | ligand displacement, radioligand |  | 10 µM |  | -10
NC(=O)c1cccc(NC(=O)c2cc(-c3ccccc3)nn2-c2ccccc2)c1 | Genome polyprotein NS2B-NS3 protease | reporter gene | HeLa | 12.5 µM |  | 45
C=CC(=O)N1Cc2nc(-c3cc(-c4cc(Cl)cnc4Cl)c(F)cc3F)n(-c3ccncn3)c2C1 | KSR2 (Homo sapiens, UniProt Q6VAB6) | cell-free assay, inhibitor |  | 1 µM |  | 6.6
Cc1cccc(N2CCC(C(=O)Nc3cccc(C(N)=O)c3)C2=O)c1 (centres unmarked) | Genome polyprotein NS2B-NS3 protease | enzyme activity, fluorogenic AMC substrate |  | 50 µM |  | 17
COc1cc(-c2cn(C)c(=O)c3cnccc23)cc(OC)c1CN(C)C | PHIP, BD2 (Homo sapiens, UniProt Q8WWQ0) |  |  | 1 µM |  | -16.8
O=C(NO)c1cccc(OS(=O)(=O)Oc2ccc(N3CCOCC3)cc2)c1 | HDAC11 (Homo sapiens, UniProt Q96DB2) |  |  | 10 µM |  | 47
O=C1c2sc(-c3ccc(N4CCC(F)C4)nc3F)nc2CCN1c1cccnc1 (centres unmarked) | VIPR1 (Homo sapiens, UniProt P32241) | ligand displacement, radioligand |  | 1 µM |  | 1
C[Si](C)(C)C[C@H](CN)CC(=O)O | TNF-alpha receptor, human | binding, radioligand binding |  | 250 µM, with: iodinated TNF-alpha |  | -2
COc1ccc(C(=O)/C=C/c2ccccc2-c2c[nH]c3ccc(C#N)cc23)c(O)c1 | ATR | enzyme activity, inhibitor |  | 20 µM |  | 10
O=C(N1CCCC1)n1ccnn1 | Acylamino-acid-releasing enzyme (Apeh, Mus musculus, UniProt Q8R146) | serine hydrolase activity, inhibitor, competitive gel-based ABPP | mouse T-cell proteome | 1 µM, 30 min, 37 °C |  | > 95
Cc1cc(C(=O)NCCNC(=O)c2cccc(COc3ccccc3C(N)=O)c2)n[nH]1 | TNKS | enzyme activity, inhibitor |  | 0.104 µM |  | 100

Substance | target | test | test system | conditions | how to read | inhibition [%]
CN(C)C/C=C/C(=O)Nc1ccc2nc(NCCCCCN(C)C)nc(NCCCCCCN(C)C)c2c1 | KMT5C | enzyme activity, inhibitor, radiometric |  | 10 µM |  | 42
O=C(c1cc(-c2ccccc2)n(-c2ccccc2)n1)N(Cc1ccccn1)CC1CCCO1 (centres unmarked) | Genome polyprotein NS2B-NS3 protease | reporter gene | HeLa | 12.5 µM |  | 3
CC(=O)C12NC(C)(C)CC1(C)C(=O)C1=C2c2c(c3c4n2C(C)(C)CC2=C4C4(CC(C)(C)NC(C)(C4)C2=O)CC3(C)C)C(=O)C(C)(C)N1 (single isomer, unassigned; (-)) | TRPV4 (Homo sapiens, UniProt Q9HBA0) | ion current, inhibitor, patch clamp | HEK-293T | 50 µM |  | 22.2
CO[C@@H](C)c1c(NC(=O)Nc2cnc(-n3nccn3)c(C(F)(F)F)c2)cnc2sc(C)nc12 | TACR2 (Homo sapiens, UniProt P21452) | ligand displacement, radioligand |  | 10 µM |  | 7
Cc1ccc(-n2nc(C(N)=O)cc2-c2ccc(CC(C)C)cc2)cc1 | Genome polyprotein NS2B-NS3 protease | reporter gene | HeLa | 12.5 µM |  | 61
O=C1c2sc(-c3ccc(N4CCC(CO)CC4)nc3F)nc2CCN1c1cccnc1 | DRD1 (Homo sapiens, UniProt P21728) | ligand displacement, radioligand |  | 1 µM |  | 3
CN1CC[C@@H](COc2cnc(C#N)cc2-c2ccn3nc(NC(=O)C4CC4)cc3c2)C1 | ATR | enzyme activity, inhibitor |  | 1 µM |  | -2
N=C(N)NCc1cccc(CNC(=O)c2cc(-c3ccccc3)n(-c3ccccc3)n2)c1 | Genome polyprotein NS2B-NS3 protease | reporter gene | HeLa | 12.5 µM |  | 19
cryptolepine | CDK7 (Homo sapiens, UniProt P50613) | kinase activity, inhibitor, ADP-Glo |  | 10 µM |  | 91.4
CCCCCCCCCCCCCCCC(=O)N[C@@H](CCCCN)C(=O)N[C@@H](CCCCN)C(=O)N[C@@H](CO)C(=O)N[C@@H](CCCNC(=N)N)C(=O)N[C@@H](C)C(=O)N[C@@H](CC(C)C)C(=O)N[C@@H](Cc1ccccc1)C(N)=O | F2RL3 (Homo sapiens, UniProt Q96RI0) | platelet aggregation, ex vivo LTA | human | 0.3 mg/kg, 14 days, with: AYPGKF 160 µM | reference: baseline | 15
CNC(=O)C[C@H](Cc1ccc(C#N)cc1)NC(=O)c1cc(-c2ccc(CN[C@H](C)c3ccc(C)cc3)o2)ccc1Cl | Motilin receptor (MLNR, Homo sapiens, UniProt O43193) | agonist response, antagonist | human cells | 10 µM, motilin antagonist |  | 50
C=CC(=O)Nc1cccc(-c2cnc3[nH]cc(C(=O)NC(C)(C)C)c3n2)c1 | PASK (Homo sapiens, UniProt Q96RG2) | enzyme activity, inhibitor |  | 0.1 µM |  | 1
Cc1cc(C(=O)N[C@H](C(=O)Nc2cccc(C(N)=O)c2)c2ccc(OCc3ccccc3)cc2)n(Cc2ccccc2)n1 | Genome polyprotein NS2B-NS3 protease | enzyme activity, fluorogenic AMC substrate |  | 50 µM |  | 94
Cc1[nH]nc2c1N=C(c1ccccc1Cl)c1cnc(N3CCOCC3)cc1N2 | ADRA1D | cell-free assay |  | 10 µM |  | 5
O=C(CC1CC2CCC1C2)NCCNC(=O)Cn1c(=O)[nH]c(=O)c2ccccc21 (centres unmarked) | TNKS | enzyme activity, inhibitor |  | 5 nM |  | 0
O=C(c1cc(-c2ccccc2)n(-c2ccccc2)n1)N1CCN(Cc2ccccn2)CC1 | Genome polyprotein NS2B-NS3 protease | enzyme activity, fluorogenic AMC substrate |  | 50 µM |  | 11

A few entries again:
Substance | target | test | test system | conditions | how to read | inhibition [%]
C/C=C/C(=O)Nc1ccc2nc(NCCCCCN(C)C)nc(NCCCCCCN(C)C)c2c1 | KMT5C | enzyme activity, inhibitor, radiometric |  | 50 µM |  | 57
CCCCCCCCCCCCCCCC(=O)N[C@@H](CCCCN)C(=O)N[C@@H](CCCCN)C(=O)N[C@@H](CO)C(=O)N[C@@H](CCCNC(=N)N)C(=O)N[C@@H](C)C(=O)N[C@@H](CC(C)C)C(=O)N[C@@H](Cc1ccccc1)C(N)=O | F2RL3 (Homo sapiens, UniProt Q96RI0) | platelet aggregation, ex vivo LTA | human | 0.3 mg/kg, 14 days, with: AYPGKF 160 µM | reference: baseline | 15
Brc1ccccc1-c1nnc(CSc2nnnn2-c2ccccc2)o1 | ADRA1D | ligand displacement, radioligand |  | 10 µM |  | -10
cryptolepine | CDK7 (Homo sapiens, UniProt P50613) | kinase activity, inhibitor, ADP-Glo |  | 10 µM |  | 91.4
O=C1c2sc(-c3ccc(N4CCC(F)C4)nc3F)nc2CCN1c1cccnc1 (centres unmarked) | VIPR1 (Homo sapiens, UniProt P32241) | ligand displacement, radioligand |  | 1 µM |  | 1
